# Measured values from different studies.
# Protocols differ between the studies behind these lines.
Compound,organism,assay,system,conditions,how to read,measurement,value
CN(C)c1cc(CNCCC(C)(C)C)c(O)c2c1C[C@H]1C[C@H]3[C@H](N(C)C)C(O)=C(C(N)=O)C(=O)[C@@]3(O)C(O)=C1C2=O,Enterococcus faecalis,"microbial growth, broth dilution",,,,MIC,1 µg/mL
CC[C@H](C)[C@H](NC(=O)[C@H](CCC(N)=O)NC(=O)[C@H](Cc1ccccc1)NC(=O)[C@H](CO)NC(=O)[C@H](CS)NC(=O)[C@H](Cc1ccccc1)NC(=O)[C@H](C)NC(=O)[C@H](CCCCN)NC(=O)[C@H](CCCNC(=N)N)NC(=O)[C@H](CCCCN)NC(=O)[C@H](CC(C)C)NC(=O)[C@H](Cc1c[nH]cn1)NC(=O)[C@@H]1CCCN1C(=O)[C@H](CCC(N)=O)NC(=O)[C@H](CC(=O)O)NC(=O)[C@H](Cc1c[nH]cn1)NC(=O)[C@H](Cc1ccccc1)NC(=O)[C@@H]1CCCN1C(=O)[C@H](CS)NC(=O)[C@H](CC(N)=O)NC(=O)[C@H](CC(=O)O)NC(=O)[C@H](CC(C)C)NC(=O)[C@H](CC(N)=O)NC(=O)[C@@H]1CCCN1C(=O)[C@H](CCC(N)=O)NC(=O)[C@@H](NC(=O)[C@H](CCCCN)NC(=O)[C@@H](NC(=O)[C@H](CS)NC(=O)[C@@H](NC(=O)[C@@H](NC(=O)[C@H](CCCNC(=N)N)NC(=O)CN)[C@@H](C)O)[C@@H](C)O)[C@@H](C)O)[C@@H](C)O)C(=O)N[C@@H](Cc1ccc(O)cc1)C(=O)N[C@@H](C)C(=O)N[C@H](C(=O)N1CCC[C@H]1C(=O)N[C@@H](Cc1c[nH]c2ccccc12)C(=O)N[C@@H](CCC(N)=O)C(=O)NCC(=O)N[C@H](C(=O)N[C@@H](CCSC)C(=O)N[C@H](C(=O)N[C@@H](CC(C)C)C(=O)N[C@@H](CO)C(=O)N[C@@H](CCCCN)C(=O)N[C@@H](CO)C(=O)N[C@H](C(=O)N[C@@H](CS)C(=O)N[C@@H](CCC(N)=O)C(=O)N[C@@H](CC(=O)O)C(=O)N[C@@H](C)C(=O)O)[C@@H](C)O)[C@@H](C)O)[C@@H](C)O)C(C)C,Simian immunodeficiency virus,infectious virus yield,"human PBMCs, mac239","10 µM, AUC-based average",,inhibition,~60%
CCC(NC(=O)CN1C(=O)N/C(=C\c2ccc(C)cc2)C1=O)C(=O)OC (stereo not shown),Leishmania donovani,"parasite growth, resazurin",,promastigote,,IC50,> 10 µM
O=C(CN(CCNC(=O)OCC1c2ccccc2-c2ccccc21)C(=O)CCc1cn(Cc2ccccc2)nn1)Nc1ccc(I)cc1,"Bacillus subtilis, Staphylococcus aureus",MIC,including MRSA,up to 512 µg/mL,,antibacterial activity,inactive
CN(C)c1cc(CNCC2CCCCC2)c(O)c2c1C[C@H]1C[C@H]3[C@H](N(C)C)C(O)=C(C(N)=O)C(=O)[C@@]3(O)C(O)=C1C2=O,Enterococcus faecalis,,"JH2-2(pMV158), Tet L efflux",,,MIC,1 µg/mL
CCOC(=O)C(NC(=O)CN1C(=O)N/C(=C\c2ccc3c(c2)OCO3)C1=O)C(C)C (stereo not shown),Leishmania major,parasite growth,,"24 h, intracellular, amastigote",,IC50,> 10 µM
Oc1c(Br)cc(Br)c2nc3cc(SC(F)(F)F)ccc3nc12,Enterococcus,Calgary Biofilm Device,VRE 700221,biofilm,,MBC,0.15 µM
Cc1cccc2c1N(C(=O)n1ccnn1)CC2,Arabidopsis thaliana,,wild type,ambient temperature,,germination inhibition concentration,> 30 µM
CC/C(=C\c1ccc(OCC(=O)NC(C(=O)N2CCOCC2)c2ccccc2)cc1)[N+](=O)[O-] (stereo not shown),Leishmania donovani,,"THP-1, intracellular amastigotes in macrophages",,relative to: CC50 THP-1 over IC50 amastigotes,selectivity ratio,7.34
CC(=O)[O-].O.[Cu+2].[O-]c1ccc(Br)cc1C=NCCN1CCOCC1,Mucor indicus,,,20 µL of 100 µM per disc,,inhibition zone diameter,19 mm
CCOC(=O)C(C)NC(=O)CN1C(=O)N/C(=C\c2ccc(C)cc2)C1=O (stereo not shown),Leishmania major,"parasite growth, resazurin",,promastigote,,IC50,> 100 µM
CN[C@H](CC(C)C)C(=O)N[C@H]1C(=O)N[C@@H](CC(N)=O)C(=O)N[C@H]2C(=O)N[C@H]3C(=O)N[C@H](C(=O)N[C@H](C(=O)O)c4cc(O)cc(O)c4-c4cc3ccc4O)[C@H](O)c3ccc(c(Cl)c3)Oc3cc2cc(c3O[C@@H]2O[C@H](CO)[C@@H](O)[C@H](O)[C@H]2O[C@H]2C[C@](C)(NCc3ccc(C(=O)OCCCCCCN(Cc4ccccn4)Cc4ccccn4)cc3)[C@H](O)[C@H](C)O2)Oc2ccc(cc2Cl)[C@H]1O,Bacillus subtilis,growth retardation,168,,,physiologically effective concentration,0.16 µM
COc1ccc2c(oc3c4ccc(O)cc4oc(=O)c23)c1CC=C(C)C,Enterococcus faecalis,,ATCC 29212,concentration not given,,antibacterial activity,inactive

# Some of these lines once more:
Compound,organism,assay,system,conditions,how to read,measurement,value
CN(C)c1cc(CNCCC(C)(C)C)c(O)c2c1C[C@H]1C[C@H]3[C@H](N(C)C)C(O)=C(C(N)=O)C(=O)[C@@]3(O)C(O)=C1C2=O,Enterococcus faecalis,"microbial growth, broth dilution",,,,MIC,1 µg/mL
CC[C@H](C)[C@H](NC(=O)[C@H](CCC(N)=O)NC(=O)[C@H](Cc1ccccc1)NC(=O)[C@H](CO)NC(=O)[C@H](CS)NC(=O)[C@H](Cc1ccccc1)NC(=O)[C@H](C)NC(=O)[C@H](CCCCN)NC(=O)[C@H](CCCNC(=N)N)NC(=O)[C@H](CCCCN)NC(=O)[C@H](CC(C)C)NC(=O)[C@H](Cc1c[nH]cn1)NC(=O)[C@@H]1CCCN1C(=O)[C@H](CCC(N)=O)NC(=O)[C@H](CC(=O)O)NC(=O)[C@H](Cc1c[nH]cn1)NC(=O)[C@H](Cc1ccccc1)NC(=O)[C@@H]1CCCN1C(=O)[C@H](CS)NC(=O)[C@H](CC(N)=O)NC(=O)[C@H](CC(=O)O)NC(=O)[C@H](CC(C)C)NC(=O)[C@H](CC(N)=O)NC(=O)[C@@H]1CCCN1C(=O)[C@H](CCC(N)=O)NC(=O)[C@@H](NC(=O)[C@H](CCCCN)NC(=O)[C@@H](NC(=O)[C@H](CS)NC(=O)[C@@H](NC(=O)[C@@H](NC(=O)[C@H](CCCNC(=N)N)NC(=O)CN)[C@@H](C)O)[C@@H](C)O)[C@@H](C)O)[C@@H](C)O)C(=O)N[C@@H](Cc1ccc(O)cc1)C(=O)N[C@@H](C)C(=O)N[C@H](C(=O)N1CCC[C@H]1C(=O)N[C@@H](Cc1c[nH]c2ccccc12)C(=O)N[C@@H](CCC(N)=O)C(=O)NCC(=O)N[C@H](C(=O)N[C@@H](CCSC)C(=O)N[C@H](C(=O)N[C@@H](CC(C)C)C(=O)N[C@@H](CO)C(=O)N[C@@H](CCCCN)C(=O)N[C@@H](CO)C(=O)N[C@H](C(=O)N[C@@H](CS)C(=O)N[C@@H](CCC(N)=O)C(=O)N[C@@H](CC(=O)O)C(=O)N[C@@H](C)C(=O)O)[C@@H](C)O)[C@@H](C)O)[C@@H](C)O)C(C)C,Simian immunodeficiency virus,infectious virus yield,"human PBMCs, mac239","10 µM, AUC-based average",,inhibition,~60%
